Published values gathered from unrelated publications.
Each numbered part is a random draw from the data of one study; scales do not carry over between parts.

Sample 1 — method: RNA Bind-n-Seq; form: RNA; medium: in vitro; tested at: not given; baseline: input RNA pool; reading: higher = stronger binding; quantity: bound/input enrichment
Target: RING finger protein unkempt homolog, zinc fingers 1-6, GST-SBP tag (UNK, Homo sapiens, UniProt Q9C0B0, residues 30-357)
Notes: RNA with constant flanks, human and mouse sites, ends assumed
Construct (chain): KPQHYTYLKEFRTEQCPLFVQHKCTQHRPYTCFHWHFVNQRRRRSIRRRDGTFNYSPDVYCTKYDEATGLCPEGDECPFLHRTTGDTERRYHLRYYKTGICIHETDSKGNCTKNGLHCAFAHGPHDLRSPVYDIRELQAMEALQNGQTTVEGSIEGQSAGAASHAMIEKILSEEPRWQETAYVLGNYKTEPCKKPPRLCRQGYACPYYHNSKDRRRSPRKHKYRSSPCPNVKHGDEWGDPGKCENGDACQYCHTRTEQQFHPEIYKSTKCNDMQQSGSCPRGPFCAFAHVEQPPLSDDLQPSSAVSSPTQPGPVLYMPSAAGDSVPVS
Strand = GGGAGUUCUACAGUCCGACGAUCUACCCGUUCUCUCCCUAUAACCUGUUUAUUAACCAACCCUGUCCUGAGUUCAUGGCCAAAACUUAAAUAAGAGAAGGAGGAGAGGGUCAGAUGGAUAAAGAUAAAGAUACCAAGGCCUGGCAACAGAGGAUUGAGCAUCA; result = 0.242 ratio
Strand = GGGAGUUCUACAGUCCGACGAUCGAGGAGAAGCAGCGGGAGCUGGCCCGGAAGGGCUCCCUGAAGAAUGGCAGCAUGGGUAGCCCUGUCAACCAGCAACCCAAGAAGAACAAUGUCAUGGCCCGAACAAGGCUGGUCGUCCCCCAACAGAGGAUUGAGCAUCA; result = 0.0973 ratio
Strand = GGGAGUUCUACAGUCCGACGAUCCCCGUAACGGGGCCUGAGUACGCAACCCCGAUCGUCAUGGACAUGUCAGGGCACCCCACAGCCUCAGUUGGUCUGCCCUCCACAUCCACCUUCAAAACUGCAGGGACCCAGCCUCACGCUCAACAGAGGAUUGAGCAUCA; result = 0.0685 ratio
Strand = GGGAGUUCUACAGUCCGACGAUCCUCACGCAGCAGUUGUGGUCAAUAUUGUGGUAGUCGCUAAUUGUACUGGUUUAAGUGUGCAUUAGUAGUGUCUCCCCAGCUAGAUUGUAAGCUCCUGGAGACAGGGACCACCUCCACCAACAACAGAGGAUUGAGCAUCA; result = 0.372 ratio
Strand = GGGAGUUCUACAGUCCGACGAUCCCUUGGAGGCUCCAUGUCAACAUGGGGACUACCCUUCACAGAGUUACUACUAUUUCAAUGGCUCGCUGCACACUCACUCUUCUUAAAACUAUGUUAACGGAACUCCUGAGAGGUGGAUCCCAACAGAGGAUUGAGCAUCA; result = 0.222 ratio
Strand = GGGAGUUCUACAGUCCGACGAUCCAGCAAUAUGCUGCUGCAGCCCUCCCCACUCUGUACAACCAGAAUUUAUUGACACAGCAGAGUAUUGGUGCUGCUGGAAGCCAGAAGGAAGGUCCAGAAGGAGCCAACCUGUUCAUCUAUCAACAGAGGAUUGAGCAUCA; result = 0.222 ratio
Strand = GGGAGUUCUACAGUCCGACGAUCAAAUUUGUUCAUGGGUAUGGGGAAACAAAUCUCUUUCUGAUGCUUAACGAUUCUAUCCUAUUAUUUUUAUUAUUUUGUUUUUGUCUUUUUUCUUAUGAGCUUUCACCACUACUGAUAUUUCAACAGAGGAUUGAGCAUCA; result = 9.05 ratio
Strand = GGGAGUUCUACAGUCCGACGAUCAAGGUUAAAUUGCUCACUGGCAAACGAGUUCAGCUGGCAGAAGAUCUCAAGAAAGUUAGAGAAAUUCAAGAAAAGCUUGAUGCUUUCAUUGAAGCUCUUCACCAGGAGAAGUAGACUGUGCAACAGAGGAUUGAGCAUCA; result = 0.291 ratio

Sample 2 — method: protein binding microarray; form: double-stranded DNA, one strand shown; medium: in vitro; tested at: not given; baseline: not given; reading: higher = stronger binding; quantity: E-score
Target: Histone acetyltransferase KAT6A, winged helix 2, GST fusion (KAT6A, Homo sapiens, UniProt Q92794, residues 85-181)
Notes: 8-mer, flanks averaged, mean of 2 arrays, mostly near background
Construct (chain): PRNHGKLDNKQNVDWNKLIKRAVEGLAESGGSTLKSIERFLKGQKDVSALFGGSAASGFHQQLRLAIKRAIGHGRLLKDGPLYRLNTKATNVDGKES
Strand = AGGGTTCG; result = 0.0592
Strand = AATGCCCA; result = 0.0502
Strand = GCGCCAGA; result = 0.149
Strand = CAGTGAGA; result = 0.0176
Strand = CCTGACGC; result = -0.0477
Strand = CCTCATGC; result = -0.0133
Strand = GGTATCAC; result = -0.00376
Strand = CAGTACGG; result = -0.0614
Strand = CAAAATGG; result = -0.0595
Strand = ATATTGTG; result = -0.141
Strand = AAGCAAGT; result = -0.0939
Strand = CACGCATG; result = 0.0311
Strand = AGTGAGCA; result = 0.00541

Sample 3 — method: RNA Bind-n-Seq; form: RNA; medium: in vitro; tested at: 20 nM; notes: 6-mer, flanks averaged, single round; with: 150 mM LiCl; baseline: input library; reading: higher = stronger binding; quantity: 6-mer enrichment (R)
Target: TAR DNA-binding protein 43, full length, His tag (TARDBP, Homo sapiens, UniProt Q13148, residues 1-414)
Strand = AGAUCU; result = 0.824
Strand = UACUGU; result = 0.97
Strand = CUUGUA; result = 1.01
Strand = GAUUUG; result = 1.04
Strand = CGGCGC; result = 0.976
Strand = GUUUAC; result = 0.983
Strand = UUCUCA; result = 0.863
Strand = CUUAAG; result = 0.868
Strand = UUCCAA; result = 0.855
Strand = GAGGGA; result = 1.2
Strand = CGGAGA; result = 0.975
Strand = AACUUG; result = 0.885
Strand = AAAGCC; result = 0.833
Strand = CACGGG; result = 0.938
Strand = AAUCCU; result = 0.835
Strand = AUUUCG; result = 0.922

Sample 4 — method: protein-binding microarray; form: double-stranded DNA, one strand shown; medium: in vitro; tested at: 2200 nM top; notes: 60-bp whole probe; with: salmon DNA 0.4 mg/ml; baseline: random background probes; reading: higher = stronger binding; quantity: fitted relative affinity; constant ends, left off below: GCCTAGCAC … GTCTTGATTCGCTTGACGCTGCTG
Target: Interferon regulatory factor 7, full length, phosphomimetic (IRF7, Homo sapiens, UniProt Q92985, residues 1-503, S471D/S472D/S475D/S476D/S477D/S483D/S484D/S487D)
Chain of UniProt Q92985 (whole entry, unmodified, looked up): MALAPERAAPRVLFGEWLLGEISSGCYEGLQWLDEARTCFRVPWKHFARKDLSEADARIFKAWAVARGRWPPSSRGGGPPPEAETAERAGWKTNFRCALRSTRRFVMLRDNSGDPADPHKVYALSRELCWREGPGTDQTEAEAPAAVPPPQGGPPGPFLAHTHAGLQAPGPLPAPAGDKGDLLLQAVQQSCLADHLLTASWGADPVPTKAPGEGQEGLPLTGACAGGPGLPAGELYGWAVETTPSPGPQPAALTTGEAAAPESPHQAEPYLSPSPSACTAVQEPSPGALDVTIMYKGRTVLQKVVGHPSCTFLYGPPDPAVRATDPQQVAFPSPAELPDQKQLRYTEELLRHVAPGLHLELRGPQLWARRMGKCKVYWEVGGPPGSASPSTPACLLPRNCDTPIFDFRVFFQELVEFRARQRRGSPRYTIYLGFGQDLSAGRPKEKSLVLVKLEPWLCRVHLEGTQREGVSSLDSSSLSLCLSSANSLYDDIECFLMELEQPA
Strand = GACGGTATCGACTATCGGGAAGTGCTA; result = -0.028 z-score
Strand = TTAGGTTCCCTTTTCCTTTAGTGCTAG; result = 3.31 z-score
Strand = GACGGTTTCGGGTTTTGGGACGTGCTA; result = 7.71 z-score
Strand = GACGGTATCGGTACCGGGACGTGCTAG; result = 0.337 z-score
Strand = TTAGAACTGAGACCGGATTAGTGCTAG; result = -0.51 z-score
Strand = GACAGACTGGGTTTCGGGACGTGCTAG; result = 1.73 z-score
Strand = GACGGTTTCCTACTGTTGACGTGCTAG; result = 1.99 z-score
Strand = GACGTTTTCGGTTTCGGGACGTGCTAG; result = 13.9 z-score
Strand = GACTTTTTAGATATCTTTTTGTGCTAG; result = 0.726 z-score
Strand = GACGATTTCATACTGGAGACGTGCTAG; result = 0.661 z-score
Strand = GACGGCCTCCTACTGCTGACGTGCTAG; result = 0.281 z-score
Strand = GACGGAATGGACACTGGGGACGTGCTA; result = -0.693 z-score
Strand = GACGCTCTCGGTATCGGGACGTGCTAG; result = 0.62 z-score
Strand = GCCGGTATCGGGACTGGGGACGTGCTA; result = -0.31 z-score
Strand = GACGATATCGAGACTGGAGACGTGCTA; result = 0.106 z-score
Strand = GACGGTTTCGGGTTTCGGGCCGTGCTA; result = 9.21 z-score
Strand = GACGATATCGGTTTCGAGACGTGCTAG; result = 3.24 z-score
Strand = TTAGATATCGGGACTGTATTAGTGCTA; result = -0.0343 z-score
Strand = TTAGGTATCGACAATGGGTTAGTGCTA; result = -0.042 z-score

Sample 5 — method: competition protein-binding microarray; form: double-stranded DNA, one strand shown; medium: in vitro; tested at: 2 µM; with: Pho4 competitor, 0.05 µM; reading: higher = stronger binding; quantity: fluorescence intensity
Target: Centromere-binding protein 1, full length, His-tagged (CBF1, Saccharomyces cerevisiae, UniProt P17106, residues 1-351)
Chain of UniProt P17106 (whole entry, looked up): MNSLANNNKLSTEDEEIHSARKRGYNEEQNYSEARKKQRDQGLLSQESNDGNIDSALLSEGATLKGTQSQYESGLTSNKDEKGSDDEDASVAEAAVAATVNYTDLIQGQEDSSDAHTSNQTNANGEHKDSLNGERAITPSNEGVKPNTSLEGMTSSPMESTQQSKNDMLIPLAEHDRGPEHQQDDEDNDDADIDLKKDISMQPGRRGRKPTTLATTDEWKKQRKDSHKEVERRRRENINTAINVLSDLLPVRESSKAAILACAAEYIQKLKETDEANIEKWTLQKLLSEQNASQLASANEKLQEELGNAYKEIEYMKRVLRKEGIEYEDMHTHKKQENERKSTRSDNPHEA
Notes: whole 60-bp probe, lowest competitor level
Strand = TCCCTGTTTATTTCACACGTCGCTTTGACTGCATACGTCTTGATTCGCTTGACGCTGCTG; result = 77.3 a.u.
Strand = AAAGCGGTAATTTTTCACGTGACCTCACATATCTATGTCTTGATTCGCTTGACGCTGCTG; result = 9190 a.u.
Strand = CTTTCCCGATCTTGGTACGTGGGTGTAGCACATTTGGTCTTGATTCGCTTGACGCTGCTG; result = 76.5 a.u.
Strand = ATGAAGACGGAATCGCACGGGCCTATTACCTCGGGGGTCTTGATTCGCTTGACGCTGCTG; result = 61.8 a.u.
Strand = AAGTTCCACAAGGTGCTCGTGTTGACACTGAAAAGTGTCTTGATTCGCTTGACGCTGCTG; result = 104 a.u.
Strand = AATTAGAACCCATGTCCCGTGGAAGCGTTTTAAAAGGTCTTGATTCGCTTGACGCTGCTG; result = 91.5 a.u.
Strand = AAAGCGGTAATTTGTCACGGCACTTCACATATCTATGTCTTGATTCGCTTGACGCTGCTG; result = 124 a.u.
Strand = GAGCGACTCAGGACGCGCGTGTGTTATTTTGGCCCCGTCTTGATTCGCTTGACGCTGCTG; result = 85 a.u.
Strand = TCGTGCGATGTTTTCATCGAATCCTCCAAGCAATGAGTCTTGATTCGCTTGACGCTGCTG; result = 79 a.u.
Strand = AAATTACTAAGTTGGGGGGTGGGTGACGCCGTATGAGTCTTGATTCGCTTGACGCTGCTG; result = 172 a.u.
Strand = GAGCTTCAATCCTGTCACAAATCCATTGCTTGTCTCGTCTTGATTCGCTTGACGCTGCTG; result = 65 a.u.
Strand = CTAACGAAGGTTTGTTGGGTGGGTGACAAGCCAAGTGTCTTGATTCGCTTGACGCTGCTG; result = 73.2 a.u.
Strand = AAGGGAAAAAGCTTTGGCGTGCTTTACGATATGGCTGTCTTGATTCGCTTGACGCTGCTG; result = 62.8 a.u.
Strand = CTAACGAAGGTTTGCCGAGTGGGTGACAAGCCAAGTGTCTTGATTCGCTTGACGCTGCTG; result = 61.6 a.u.
Strand = AAAGCGGTAATTTTTCACGTGGCCTCACATATCTATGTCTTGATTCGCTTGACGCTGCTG; result = 1150 a.u.
Strand = ATCACATCAAAACATTGTGGTTCTCTGAACAGCCTAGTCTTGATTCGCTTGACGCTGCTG; result = 84.8 a.u.
Strand = TATGTAAAAAATCCGCACGTTGCCAGATACATACCGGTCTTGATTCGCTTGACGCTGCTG; result = 127 a.u.
Strand = CTTTCCCGATCTTTTCACGTGAGGTTAGCACATTTGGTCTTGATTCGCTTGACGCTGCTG; result = 915 a.u.
Strand = TTTATATAAAGGGTACTCGTGCAAACGGACATCGAGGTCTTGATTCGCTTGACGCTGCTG; result = 133 a.u.

Excerpt of the above (sample 3):
Strand = UUCUCA; result = 0.863
Strand = GAUUUG; result = 1.04
Strand = UUCCAA; result = 0.855
Strand = CUUGUA; result = 1.01
Strand = AAUCCU; result = 0.835
Strand = CUUAAG; result = 0.868
Strand = UACUGU; result = 0.97
Strand = AUUUCG; result = 0.922
